Published values of several laboratories.
A part holds a random share of what one study measured. Positions count from the first letter of the parent shown.

Set 1
Target: BATF, bZIP domain (human)
Method: DHFR protein complementation
Matrix: yeast
Notes: single substitutions, most at no-binding floor
Relative to: wild-type JUN-FOS pair
Reading: higher = stronger binding
Starting sequence: JUN, bZIP domain (human); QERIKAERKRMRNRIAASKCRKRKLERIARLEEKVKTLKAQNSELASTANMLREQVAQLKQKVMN; partner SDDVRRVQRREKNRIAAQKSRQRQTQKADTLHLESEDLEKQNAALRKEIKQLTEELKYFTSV
| Change | binding fitness |
| --- | --- |
| V35H | -0.311 natural log |
| V35Y | -0.132 natural log |
| L45K | -1.37 natural log |
| E33W | -0.239 natural log |
| L38H | -0.961 natural log |
| K39W | -0.354 natural log |
| I28E | 0.0791 natural log |
| L59A | 0.0998 natural log |
| S47I | -0.00398 natural log |
| A40C | -0.0724 natural log |
| A40Q | 0.112 natural log |
| L59T | -0.182 natural log |
| I28V | 0.0339 natural log |
| A40W | -0.199 natural log |
| K39V | -0.316 natural log |

Set 2
Target: CCNA2, cyclin fold, Cln2 fusion (human)
Method: yeast growth competition, sequencing
Matrix: yeast
Notes: strong parent motif
Relative to: not given
Reading: higher = stronger binding
Starting sequence: E2F1 docking peptide (human); PPVKRRLDLETDH
| Change | normalised enrichment score |
| --- | --- |
| V3H | 0.598 |
| D12R | 3.55 |
| H13L | 4.43 |
| R5N | 0.629 |
| D8W | 4.33 |
| P1V | 3.77 |
| E10G | 5.73 |
| D8R | 4.25 |
| D8S | 3.7 |
| P2V | 2.67 |
| D12C | 4.7 |
| R5A | -0.432 |
| H13C | 4.24 |
| V3D | 0.48 |
| D8N | 5.81 |
| R6T | 1.99 |
| E10N | 4.93 |

Set 3
Target: RNA binding protein fox-1 homolog 2, RRM domain, GST-SBP tag (RBFOX2, Homo sapiens, UniProt O43251-10, residues 100-194)
Method: RNA Bind-n-Seq
Form: RNA
Matrix: in vitro
Tested at: 365 nM
Notes: natural RNA segment, single round, ends assumed
Relative to: no-protein control
Reading: higher = stronger binding
Shared flanks, not repeated: GGGAGUUCUACAGUCCGACGAUC … UGGAAUUCUCGGGUGCCAA
Construct (chain): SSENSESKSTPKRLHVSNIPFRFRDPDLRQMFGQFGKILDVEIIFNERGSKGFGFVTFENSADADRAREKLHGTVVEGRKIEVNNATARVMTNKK
| Sequence | RBNS enrichment (R) |
| --- | --- |
| GCAGCCUCCUACGCAGGGUCCACGCCACGUGGCCUGGGCUGCCAUCCUGCCGUCCUCCCACUGGCAUCCUGGCAAGGGGGCGUUGCUUUUCCUGGGCGGCCUUUUAUGUC | 0.269 |
| CUCAGUCAAGUCCUGAUCCAUUUCGUCAUGAAGAGAGCAGGACCUUUCCAUUCUAUGAAGGGUGCGUGUUUCUGGUUUCCAGCAGCAGGAUAACAAGUGGGAAUUUACUC | 0.265 |
| AUUUUUCUUGCAUUAGGGCACAGUGUUAAAUUUUUUGGAGGUAAAUAUACUAUUUAUAAUCACUAUAUAUAGUAGGAGGGGGUAUGUGUCUCAGGCUUUUCUGAAGUUGC | 1.62 |
| UAAAACUGUUAUUUUUUUUUCACGAUGUGAAACUGAAGGUCAAUAAAUUAUUAGAGAUUUUCUCUUCAUUGUAUUGUGAGUUUUUAUUUGACAGCAAUGAAAAUUUUGGA | 0.392 |
| AGCCCAUUGGCCGAGCUCCUGGGGAGCUCCUGGGACCCUUGGCUAUGAAAAUGAGCCCUGGCUCCCACCUGUUUCUGGAAGACUGCUCCCGGCCCGCCUGCCCAGACUGA | 0.519 |
| CUCCCCACCACCCUCCGCCAUCAGCCUGCCUGGGCCAGCCUGCCUCCUGGCCUCAGGAUCUCCCUGGGGCAGGAAGUGGGUGGACUUGGAGGAGGAACGGCAAGGGCCGG | 0.3 |
| CACUAUGUCCCAGUCUUCUCAUGUGACCUCAGCCUGAACCCUGUGGAGACCUCCUCUGGCCAGGGGGCCACUGGUGUCCUCACUGUGUUGGGAUUCUGUUAUCCCUGAUA | 0.353 |
| AGUUUGUGAUAAUUGCUCCAGUUCUACAAACAACAGAAUUUUAAAUAGAGGAAGUGGAUAAAGGAGACACCUCCCUUGCUGUGUGCUCUUUGAAAGUAAUUGACAGAAAA | 0.656 |
| UGACGACAGAGAUGAUGGUGUGGAUUAUUGGGCCAAAAGAGGAAGAGGUCGUGGUACUUUUCAACGUGGCAGAGGGCGCUUUAACUUCAAAAAAUCAGGUAGCAGUCCUA | 0.636 |
| ACCCAAGGGGCCUCUCCAUGCCUUCUUAGGAAGCAGCUAUGAAUCCAUUGUCCUUGUAGUUUCUUCCCUCCUGUUCUCUGGUUAUAGCUGGUCCCAGGUCAGCGUGGGAG | 0.371 |
| GCAACCUCCAGGAAGAGAUACUCGUUACCCUUCAUUAUUUUCUAGCACUUUUGAACAGUCCCACAGUGCACAGGCCAUUUGAAGGAUGUAGAUGGCAGCCCUGGGCUGUC | 0.957 |
| GGCAGUCCCAAACACCAGAGUCUGUACUUUUCUAUGACACAGCUCAAAUUAAAGUAGGGCACAUGCCAAGGAGGUUCUCACCUCCCUAAAGAAGGGACUUGAAUUUUAGG | 0.327 |

Set 4
Target: Histone acetyltransferase KAT6A, winged helix 1, GST fusion (KAT6A, Homo sapiens, UniProt Q92794, residues 1-85)
Method: protein binding microarray
Form: double-stranded DNA, one strand shown
Matrix: in vitro
Tested at: not given
Notes: 8-mer, flanks averaged, mean of 2 arrays, mostly near background
Relative to: not given
Reading: higher = stronger binding
Construct (chain): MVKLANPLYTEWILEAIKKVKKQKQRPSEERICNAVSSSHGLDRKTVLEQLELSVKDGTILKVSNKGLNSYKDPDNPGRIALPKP
| Sequence | E-score |
| --- | --- |
| GATGTTCC | -0.0596 |
| CCCCCCTC | -0.292 |
| GACATTAA | -0.0373 |
| CCAATAAG | -0.0802 |
| AGGCAAGA | -0.164 |
| CGCTTAGC | 0.294 |
| ATGTGTCG | -0.138 |
| CCCGGCCC | 0.263 |
| AGTACATC | -0.043 |
| AGAGGTTG | -0.123 |
| CTCTTAAC | -0.127 |
| CGGGGGAA | 0.253 |
| CTTATAAA | -0.101 |
| GAGCGATA | 0.00919 |
| CCATTGAC | -0.0415 |
| GGTCAATA | -0.107 |
| CCCAGATC | -0.0458 |
| CAAACCGC | 0.167 |
| TCCGGCCA | 0.137 |
| CCAGTCCA | -0.28 |
| CATAAAAA | -0.145 |
| GAAACTCA | -0.13 |
| AAGAGCGT | 0.206 |
| GCCTTGTA | -0.0969 |
| TATAGTAA | 0.0286 |

Set 5
Target: ABI1, truncated, D143A, DHFR fusion (Arabidopsis thaliana)
Method: DHFR PCA, deep sequencing
Matrix: yeast
Notes: methotrexate growth selection, single substitutions
Together with: (+)-ABA 4.8 µM
Relative to: wild-type fitted maximum
Reading: higher = stronger binding
Starting sequence: PYL1, truncated, DHFR fusion (Arabidopsis thaliana); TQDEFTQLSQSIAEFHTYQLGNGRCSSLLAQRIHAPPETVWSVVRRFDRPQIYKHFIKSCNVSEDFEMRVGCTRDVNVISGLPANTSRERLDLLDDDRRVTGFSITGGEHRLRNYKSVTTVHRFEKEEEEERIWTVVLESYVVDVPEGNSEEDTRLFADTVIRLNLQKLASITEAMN
| Change | relative binding score [%] |
| --- | --- |
| F47M | 8.46 |
| R123K | 88.5 |
| E174D | 4.83 |
| P36M | 51.3 |
| A13I | 55.2 |
| S104R | 2.06 |
| Q10C | 61.1 |
| R88N | 63.6 |
| V44W | 3.99 |
| E4Y | 60.4 |
| E127C | 71 |
| C72E | 69.2 |

Set 6
Target: Interferon regulatory factor 5, full length, phosphomimetic (IRF5, Homo sapiens, UniProt Q13568-2, residues 1-514, K96S/S451D/S453D/S456D/S462D)
Method: protein-binding microarray
Form: double-stranded DNA, one strand shown
Matrix: in vitro
Tested at: 250 nM
Notes: 60-bp whole probe
Together with: salmon DNA 0.4 mg/ml
Relative to: random background probes
Reading: higher = stronger binding
Shared flanks, not repeated: GCCTAGCAC … GTCTTGATTCGCTTGACGCTGCTG
| Sequence | log fluorescence [z-score] |
| --- | --- |
| GACAATTCCAGTTTCGAGACGTGCTAG | 6.28 |
| TCACCTATCAGTTTAATACTGTGCTAG | 1.44 |
| TTAGGACTGGGTTTCGGGTAGTGCTAG | 4.49 |
| ACTCTAATCTCACTCTGTCCGTGCTAG | 0.377 |
| ATAGGTTTCGGGACTGGGTTAGTGCTA | 5.35 |
| TCATGTCCCTGTTTCTAACTGTGCTAG | 0.553 |
| TTAGGTATCGGGTTTCCGTTAGTGCTA | 4.1 |
| GACGGTATCGGACTTGGGACGTGCTAG | 0.678 |
| GACGGCTTCCTACTGCTGACGTGCTAG | -0.57 |
| TTAGGTCTCCGTCTCGGTTAGTGCTAG | 0.307 |
| TGGTGCTTAGTATTTTTTTCCGTGCTA | 0.0522 |
| GACGGACTGGGGTATCGGGTCGTGCTA | 0.497 |
| AACGGTTTCCTTTCCCTGACGTGCTAG | 1.77 |
| TCAGAAATTTCTTTCTAACTGTGCTAG | 1.76 |
| TTAGGTATCGACACTGCGTTAGTGCTA | 2.37 |
| GACGAACTGGACTATCGGGACGTGCTA | 0.736 |
| ACAGCCTTTCTAACTTGAAAGTGCTAG | 0.375 |
| GACGGTTTCGGGAATCGGGACGTGCTA | 5.5 |
| TCAACTCCCTCTCTGGCACTGTGCTAG | -0.0605 |
| GACGGTATCGGGTTCCGGGACGTGCTA | 2.35 |
| CTTTTTTTGGTAATAGTGAAGTGCTAG | 1.3 |

Further values, each from its own experiment
| Molecule | target | test | system | setting | scale | endpoint | result |
| --- | --- | --- | --- | --- | --- | --- | --- |
| PhoQ, residues 284 288 289 292 302 303 SNGLAW | PhoP, residues 12 14 15 18 19 VQALL (Escherichia coli, UniProt P23836) | Sort-seq, item: YFP reporter | E. coli | PhoQ-PhoP variant library, together with: 10 µM Mg2+ | relative to: high Mg2+ state, higher = stronger signaling | fold induction | 7.39 |

Repeated from above (set 2):
| Change | normalised enrichment score |
| --- | --- |
| D8W | 4.33 |
| P1V | 3.77 |
| E10G | 5.73 |
| D8R | 4.25 |
| D8S | 3.7 |
| P2V | 2.67 |
| D12C | 4.7 |
| R5A | -0.432 |
| H13C | 4.24 |
| V3D | 0.48 |
